Experimental data gathered from unrelated publications.
Every numbered part comes from another study and shows a few of its results, in no order. ± marks the error that the study gave.
Chain of UniProt Q8TBX8 (whole entry, looked up): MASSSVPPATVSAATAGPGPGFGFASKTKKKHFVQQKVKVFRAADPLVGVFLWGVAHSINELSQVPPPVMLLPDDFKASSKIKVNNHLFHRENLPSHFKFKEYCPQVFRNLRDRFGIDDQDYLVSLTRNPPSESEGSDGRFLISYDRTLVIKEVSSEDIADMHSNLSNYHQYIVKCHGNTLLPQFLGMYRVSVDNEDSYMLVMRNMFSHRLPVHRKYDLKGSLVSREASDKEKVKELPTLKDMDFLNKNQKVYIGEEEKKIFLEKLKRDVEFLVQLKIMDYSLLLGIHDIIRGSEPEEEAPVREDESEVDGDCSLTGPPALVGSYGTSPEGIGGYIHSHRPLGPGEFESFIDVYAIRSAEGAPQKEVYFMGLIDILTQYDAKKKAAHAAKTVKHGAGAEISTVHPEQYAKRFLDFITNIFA
Chain of UniProt Q13237 (whole entry, looked up): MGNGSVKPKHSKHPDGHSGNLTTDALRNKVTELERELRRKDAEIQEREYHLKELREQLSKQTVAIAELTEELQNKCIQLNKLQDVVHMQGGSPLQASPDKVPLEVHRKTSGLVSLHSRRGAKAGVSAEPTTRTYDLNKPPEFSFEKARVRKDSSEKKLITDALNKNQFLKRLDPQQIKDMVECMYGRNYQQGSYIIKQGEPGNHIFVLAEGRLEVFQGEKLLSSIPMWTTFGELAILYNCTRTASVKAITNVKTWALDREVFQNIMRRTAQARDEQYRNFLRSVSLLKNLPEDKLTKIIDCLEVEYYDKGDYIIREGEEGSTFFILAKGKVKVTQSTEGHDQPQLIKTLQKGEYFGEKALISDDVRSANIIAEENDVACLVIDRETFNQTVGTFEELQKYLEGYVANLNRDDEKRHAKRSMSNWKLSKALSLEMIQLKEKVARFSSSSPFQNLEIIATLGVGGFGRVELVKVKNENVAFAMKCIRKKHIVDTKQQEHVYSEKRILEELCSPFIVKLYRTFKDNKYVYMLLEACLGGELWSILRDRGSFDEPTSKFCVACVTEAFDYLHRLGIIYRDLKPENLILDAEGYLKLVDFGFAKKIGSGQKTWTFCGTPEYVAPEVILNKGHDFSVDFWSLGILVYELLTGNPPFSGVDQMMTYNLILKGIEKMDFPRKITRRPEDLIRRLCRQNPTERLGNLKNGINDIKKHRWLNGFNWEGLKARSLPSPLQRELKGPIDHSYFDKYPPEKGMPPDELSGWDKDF
Chain of UniProt P52333 (whole entry, looked up): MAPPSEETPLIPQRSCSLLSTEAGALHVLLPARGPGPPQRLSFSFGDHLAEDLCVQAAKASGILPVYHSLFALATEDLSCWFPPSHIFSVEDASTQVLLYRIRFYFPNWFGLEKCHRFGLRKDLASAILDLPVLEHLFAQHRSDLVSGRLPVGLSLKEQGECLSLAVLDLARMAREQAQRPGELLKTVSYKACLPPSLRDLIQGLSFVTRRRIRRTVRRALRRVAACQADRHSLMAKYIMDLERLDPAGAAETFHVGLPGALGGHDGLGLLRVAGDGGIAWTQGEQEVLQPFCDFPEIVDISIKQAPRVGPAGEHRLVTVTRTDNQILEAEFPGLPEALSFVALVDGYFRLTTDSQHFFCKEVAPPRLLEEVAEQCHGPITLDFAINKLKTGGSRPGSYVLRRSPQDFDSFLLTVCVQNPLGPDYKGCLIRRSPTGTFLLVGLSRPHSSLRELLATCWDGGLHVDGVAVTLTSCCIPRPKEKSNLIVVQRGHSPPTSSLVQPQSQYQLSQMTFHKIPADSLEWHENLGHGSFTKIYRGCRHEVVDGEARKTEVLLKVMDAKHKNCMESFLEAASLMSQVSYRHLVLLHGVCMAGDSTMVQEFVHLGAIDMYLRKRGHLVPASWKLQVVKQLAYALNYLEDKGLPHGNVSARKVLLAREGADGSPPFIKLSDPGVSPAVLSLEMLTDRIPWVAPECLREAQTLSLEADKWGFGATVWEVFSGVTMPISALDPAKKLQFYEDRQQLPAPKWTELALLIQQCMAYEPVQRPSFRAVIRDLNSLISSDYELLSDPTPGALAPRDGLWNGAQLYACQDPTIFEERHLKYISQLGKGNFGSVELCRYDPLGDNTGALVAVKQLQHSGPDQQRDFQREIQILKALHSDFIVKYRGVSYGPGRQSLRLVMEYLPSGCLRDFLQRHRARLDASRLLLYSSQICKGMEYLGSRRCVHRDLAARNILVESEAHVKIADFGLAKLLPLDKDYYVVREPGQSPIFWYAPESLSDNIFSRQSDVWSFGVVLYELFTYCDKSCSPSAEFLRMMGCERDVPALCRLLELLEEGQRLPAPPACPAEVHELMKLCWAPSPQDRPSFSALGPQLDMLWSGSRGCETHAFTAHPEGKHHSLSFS
Chain of UniProt Q9UQB9 (whole entry, looked up): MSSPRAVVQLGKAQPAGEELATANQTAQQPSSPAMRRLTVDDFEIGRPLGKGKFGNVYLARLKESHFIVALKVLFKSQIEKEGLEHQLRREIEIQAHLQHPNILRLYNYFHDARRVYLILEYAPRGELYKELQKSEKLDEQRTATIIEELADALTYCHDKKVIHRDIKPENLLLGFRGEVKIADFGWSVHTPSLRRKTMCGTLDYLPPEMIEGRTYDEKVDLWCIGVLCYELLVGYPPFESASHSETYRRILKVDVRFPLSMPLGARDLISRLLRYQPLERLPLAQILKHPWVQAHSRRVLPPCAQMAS
Chain of UniProt O15146 (whole entry, looked up): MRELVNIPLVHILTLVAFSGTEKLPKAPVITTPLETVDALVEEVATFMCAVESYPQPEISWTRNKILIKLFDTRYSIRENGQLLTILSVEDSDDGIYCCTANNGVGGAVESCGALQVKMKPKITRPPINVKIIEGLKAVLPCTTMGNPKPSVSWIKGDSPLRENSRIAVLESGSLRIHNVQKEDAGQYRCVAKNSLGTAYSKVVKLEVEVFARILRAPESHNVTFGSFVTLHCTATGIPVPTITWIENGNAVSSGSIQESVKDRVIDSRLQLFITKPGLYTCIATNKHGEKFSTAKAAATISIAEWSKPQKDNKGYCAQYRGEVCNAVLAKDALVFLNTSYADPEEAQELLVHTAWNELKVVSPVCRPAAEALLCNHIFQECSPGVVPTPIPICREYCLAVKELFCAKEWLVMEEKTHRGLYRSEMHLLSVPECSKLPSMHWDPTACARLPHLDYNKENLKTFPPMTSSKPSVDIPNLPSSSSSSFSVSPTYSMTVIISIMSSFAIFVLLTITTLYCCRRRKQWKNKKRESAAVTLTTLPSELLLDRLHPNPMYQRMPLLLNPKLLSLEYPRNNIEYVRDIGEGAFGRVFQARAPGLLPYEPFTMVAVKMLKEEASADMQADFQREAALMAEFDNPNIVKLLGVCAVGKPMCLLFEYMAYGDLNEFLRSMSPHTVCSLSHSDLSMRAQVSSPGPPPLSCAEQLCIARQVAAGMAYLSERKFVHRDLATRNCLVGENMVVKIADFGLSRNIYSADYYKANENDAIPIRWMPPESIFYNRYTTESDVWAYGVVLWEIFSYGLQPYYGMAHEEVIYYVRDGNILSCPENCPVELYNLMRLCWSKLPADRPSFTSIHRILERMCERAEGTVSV
Chain of UniProt Q92918 (whole entry, looked up): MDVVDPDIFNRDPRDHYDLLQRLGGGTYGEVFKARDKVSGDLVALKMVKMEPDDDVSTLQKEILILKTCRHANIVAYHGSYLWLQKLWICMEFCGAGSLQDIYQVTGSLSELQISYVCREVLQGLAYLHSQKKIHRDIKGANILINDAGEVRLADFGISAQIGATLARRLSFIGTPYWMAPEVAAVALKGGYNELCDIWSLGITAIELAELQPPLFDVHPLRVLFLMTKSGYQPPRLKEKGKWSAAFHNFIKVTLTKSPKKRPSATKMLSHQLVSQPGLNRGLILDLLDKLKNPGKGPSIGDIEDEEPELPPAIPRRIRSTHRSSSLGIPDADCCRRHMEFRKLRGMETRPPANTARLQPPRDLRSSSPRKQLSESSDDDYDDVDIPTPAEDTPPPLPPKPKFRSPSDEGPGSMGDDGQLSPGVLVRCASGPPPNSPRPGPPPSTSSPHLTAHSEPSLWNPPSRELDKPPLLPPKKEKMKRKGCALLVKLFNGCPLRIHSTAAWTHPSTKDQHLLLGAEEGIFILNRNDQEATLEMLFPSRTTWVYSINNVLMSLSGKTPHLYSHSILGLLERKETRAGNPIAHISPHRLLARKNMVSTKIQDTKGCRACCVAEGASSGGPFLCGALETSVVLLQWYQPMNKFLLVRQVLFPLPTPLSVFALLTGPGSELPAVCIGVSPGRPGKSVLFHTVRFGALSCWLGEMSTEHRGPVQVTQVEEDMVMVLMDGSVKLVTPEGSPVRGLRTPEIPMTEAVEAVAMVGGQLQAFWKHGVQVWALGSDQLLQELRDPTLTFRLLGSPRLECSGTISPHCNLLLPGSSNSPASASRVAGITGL
Chain of UniProt Q13705 (whole entry, looked up): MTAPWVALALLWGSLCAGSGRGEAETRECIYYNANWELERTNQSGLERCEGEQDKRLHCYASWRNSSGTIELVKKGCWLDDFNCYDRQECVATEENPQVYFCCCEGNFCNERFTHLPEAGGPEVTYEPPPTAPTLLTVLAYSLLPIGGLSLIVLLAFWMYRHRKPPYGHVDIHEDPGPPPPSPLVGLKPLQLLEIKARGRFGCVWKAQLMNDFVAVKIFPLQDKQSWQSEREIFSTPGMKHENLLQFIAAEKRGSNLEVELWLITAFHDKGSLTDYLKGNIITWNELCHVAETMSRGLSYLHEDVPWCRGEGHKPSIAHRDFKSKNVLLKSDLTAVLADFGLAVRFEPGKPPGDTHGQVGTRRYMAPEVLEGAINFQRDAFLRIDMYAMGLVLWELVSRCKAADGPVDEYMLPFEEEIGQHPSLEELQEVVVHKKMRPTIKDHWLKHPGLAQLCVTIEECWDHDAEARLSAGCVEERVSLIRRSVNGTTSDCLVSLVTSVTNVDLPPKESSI

Sample 1 — technique: universal PBM; molecule type: double-stranded DNA, one strand shown; matrix: in vitro; tested at: not given; reading: higher = stronger binding
Target: Sal-like protein 4, full length isoform B (SALL4, Homo sapiens, UniProt Q9UJQ4-2, residues 1-616)
Notes: 8-mer, flanks averaged, mean of replicates
`AAAACACA` has an E-score of 0.171.
With `ACAAGGAA` the E-score was 0.072.
`CTGGTAGA` has an E-score of -0.102.
`AGTTGGGG` gave an E-score of -0.0886.
`AAGCGGGA` gave an E-score of -0.152.
The E-score of `TCCTGCCA` is reported as -0.138.
`ATGATACG` has an E-score of 0.26.
`CATAGGGC` gave an E-score of -0.189.

Sample 2 — effect on: cell-free assay; technique: competition with immobilised ligand; tested at: 1 µM
Compound: CCCOc1ccc([C@H]2[C@H](C(=O)O)[C@@H](c3ccc4c(c3)OCO4)CN2CC(=O)Nc2c(CC)cccc2CC)cc1
Tyrosine-protein kinase JAK3, JH1 (JAK3, Homo sapiens, UniProt P52333) — remaining binding: 84%.
It gave 73% for remaining binding (PAK5 (Homo sapiens, UniProt Q9P286)).
It gave 82% for remaining binding (PRKG2 (Homo sapiens, UniProt Q13237)).
For Aurora kinase C (AURKC, Homo sapiens, UniProt Q9UQB9): remaining binding read 91%.
ACVR2B (Homo sapiens, UniProt Q13705) — remaining binding: 93%.
OXSR1 (Homo sapiens, UniProt O95747) — remaining binding: 75%.
It gave 77% for remaining binding (Ribosomal protein S6 kinase alpha-6, C-terminal kinase domain (RPS6KA6, Homo sapiens, UniProt Q9UK32)).
It gave 97% for remaining binding (LATS2 (Homo sapiens, UniProt Q9NRM7)).
It gave 82% for remaining binding (NEK10 (Homo sapiens, UniProt Q6ZWH5)).
For ALK (Homo sapiens, UniProt Q9UM73, L1196M): remaining binding read 91%.
It gave 87% for remaining binding (BMP2K (Homo sapiens, UniProt Q9NSY1)).
For MAP3K15 (Homo sapiens, UniProt Q6ZN16): remaining binding read 73%.
The remaining binding was 92% (MAP4K1 (Homo sapiens, UniProt Q92918)).
PIP4K2C (Homo sapiens, UniProt Q8TBX8) — remaining binding: 49%.
For EIF2AK1 (Homo sapiens, UniProt Q9BQI3): remaining binding read 84%.

Sample 3 — SMILES: Cc1ccc(S(=O)(=O)/C=C/C#N)cc1; effect on: enzyme activity; mode: inhibitor; tested at: 0.5 µM; baseline: control
The remaining activity was 103% (CSNK1D (Homo sapiens, UniProt P48730)).
The remaining activity was 144% (TEC (Homo sapiens, UniProt P42680)).
For CLK1 (Homo sapiens, UniProt P49759): remaining activity read 107%.
The remaining activity was 89.2% (Cyclin-dependent kinase 2, with cyclin E (CDK2, Homo sapiens, UniProt P24941)).
MUSK (Homo sapiens, UniProt O15146) — remaining activity: 107%.
For SIK2 (Homo sapiens, UniProt Q9H0K1): remaining activity read 106%.
It gave 107% for remaining activity (PAK6 (Homo sapiens, UniProt Q9NQU5)).
The remaining activity was 100% (PRKCQ (Homo sapiens, UniProt Q04759)).
The remaining activity was 112% (SGK2 (Homo sapiens, UniProt Q9HBY8)).
It gave 107% for remaining activity (CSNK1E (Homo sapiens, UniProt P49674)).
The remaining activity was 94.7% (MAP3K20 (Homo sapiens, UniProt Q9NYL2)).
The remaining activity was 92.8% (FLT1 (Homo sapiens, UniProt P17948)).
The remaining activity was 98.8% (CAMK1 (Homo sapiens, UniProt Q14012)).
For SRPK1 (Homo sapiens, UniProt Q96SB4): remaining activity read 99.7%.

Mixed results
The serum cholesterol of `OCCN1CCN(CCCN2c3ccccc3Sc3ccc(Cl)cc32)CC1` is reported as 99.5 ± 11.2 mg/dL (mouse, serum; dose not given).

Excerpt of the above (sample 3):
For CLK1 (Homo sapiens, UniProt P49759): remaining activity read 107%.
The remaining activity was 89.2% (Cyclin-dependent kinase 2, with cyclin E (CDK2, Homo sapiens, UniProt P24941)).
MUSK (Homo sapiens, UniProt O15146) — remaining activity: 107%.
For SIK2 (Homo sapiens, UniProt Q9H0K1): remaining activity read 106%.
It gave 107% for remaining activity (PAK6 (Homo sapiens, UniProt Q9NQU5)).
The remaining activity was 100% (PRKCQ (Homo sapiens, UniProt Q04759)).
